Published values from different studies.
Numbered parts are unrelated; each lists some results of a single study. Several values in a cell are separate wells, animals, samples, runs or records.
Chain of UniProt P53671 (whole entry, looked up): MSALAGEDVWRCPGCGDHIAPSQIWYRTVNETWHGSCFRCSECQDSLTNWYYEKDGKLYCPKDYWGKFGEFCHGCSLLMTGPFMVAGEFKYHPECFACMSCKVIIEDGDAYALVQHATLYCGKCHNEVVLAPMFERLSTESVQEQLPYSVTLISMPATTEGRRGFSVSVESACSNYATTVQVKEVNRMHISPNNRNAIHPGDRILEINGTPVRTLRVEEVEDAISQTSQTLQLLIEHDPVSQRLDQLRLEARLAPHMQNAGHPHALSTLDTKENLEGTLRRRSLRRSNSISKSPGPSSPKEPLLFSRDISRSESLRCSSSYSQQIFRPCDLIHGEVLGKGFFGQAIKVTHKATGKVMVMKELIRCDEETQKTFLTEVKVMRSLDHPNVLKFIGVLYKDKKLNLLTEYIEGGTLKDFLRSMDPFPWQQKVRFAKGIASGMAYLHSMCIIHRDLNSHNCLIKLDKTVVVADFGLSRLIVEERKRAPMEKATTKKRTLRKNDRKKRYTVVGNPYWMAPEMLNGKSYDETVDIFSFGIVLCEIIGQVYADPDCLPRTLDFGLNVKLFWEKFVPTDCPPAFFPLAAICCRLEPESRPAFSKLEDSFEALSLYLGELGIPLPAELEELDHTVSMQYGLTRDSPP
Chain of UniProt Q8IVH8 (whole entry, looked up): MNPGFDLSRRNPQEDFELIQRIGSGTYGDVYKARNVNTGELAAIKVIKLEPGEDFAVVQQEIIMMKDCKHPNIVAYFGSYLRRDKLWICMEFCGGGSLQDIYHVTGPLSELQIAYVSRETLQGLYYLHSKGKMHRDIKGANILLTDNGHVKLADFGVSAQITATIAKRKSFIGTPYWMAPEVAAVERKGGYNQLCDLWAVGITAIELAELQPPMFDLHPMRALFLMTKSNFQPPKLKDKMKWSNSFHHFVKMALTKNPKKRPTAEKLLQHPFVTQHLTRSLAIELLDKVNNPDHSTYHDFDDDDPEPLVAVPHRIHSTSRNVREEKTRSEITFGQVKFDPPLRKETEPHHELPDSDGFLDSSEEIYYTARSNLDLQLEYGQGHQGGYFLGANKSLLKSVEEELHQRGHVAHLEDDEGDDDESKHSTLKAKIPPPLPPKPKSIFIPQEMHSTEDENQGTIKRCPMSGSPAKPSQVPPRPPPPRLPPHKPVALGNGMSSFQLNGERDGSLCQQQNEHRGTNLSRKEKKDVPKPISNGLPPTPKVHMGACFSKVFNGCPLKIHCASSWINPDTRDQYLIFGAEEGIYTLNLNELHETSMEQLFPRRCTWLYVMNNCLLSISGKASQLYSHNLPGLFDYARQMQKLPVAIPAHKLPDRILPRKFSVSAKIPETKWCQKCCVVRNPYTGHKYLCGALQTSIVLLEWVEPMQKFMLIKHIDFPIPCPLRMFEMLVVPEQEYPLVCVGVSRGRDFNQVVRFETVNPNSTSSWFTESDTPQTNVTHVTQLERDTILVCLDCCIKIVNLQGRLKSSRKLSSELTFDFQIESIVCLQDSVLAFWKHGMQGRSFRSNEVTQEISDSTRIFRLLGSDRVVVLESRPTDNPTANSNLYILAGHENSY
Chain of UniProt O96017 (whole entry, looked up): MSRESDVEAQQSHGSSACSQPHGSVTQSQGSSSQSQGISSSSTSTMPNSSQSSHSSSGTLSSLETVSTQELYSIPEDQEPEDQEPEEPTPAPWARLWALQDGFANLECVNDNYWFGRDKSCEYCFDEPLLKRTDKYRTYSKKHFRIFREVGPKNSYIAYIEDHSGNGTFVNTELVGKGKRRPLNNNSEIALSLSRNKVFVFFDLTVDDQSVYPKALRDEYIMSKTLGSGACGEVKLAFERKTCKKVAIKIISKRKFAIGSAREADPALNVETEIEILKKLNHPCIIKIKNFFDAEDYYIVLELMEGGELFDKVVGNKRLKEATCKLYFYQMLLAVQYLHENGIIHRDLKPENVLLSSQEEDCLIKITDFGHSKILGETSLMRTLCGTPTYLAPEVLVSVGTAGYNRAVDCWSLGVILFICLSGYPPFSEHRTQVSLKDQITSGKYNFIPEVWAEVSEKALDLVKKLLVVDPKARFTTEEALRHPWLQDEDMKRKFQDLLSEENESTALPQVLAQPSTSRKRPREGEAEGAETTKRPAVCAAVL
Chain of UniProt Q9HAZ1 (whole entry, looked up): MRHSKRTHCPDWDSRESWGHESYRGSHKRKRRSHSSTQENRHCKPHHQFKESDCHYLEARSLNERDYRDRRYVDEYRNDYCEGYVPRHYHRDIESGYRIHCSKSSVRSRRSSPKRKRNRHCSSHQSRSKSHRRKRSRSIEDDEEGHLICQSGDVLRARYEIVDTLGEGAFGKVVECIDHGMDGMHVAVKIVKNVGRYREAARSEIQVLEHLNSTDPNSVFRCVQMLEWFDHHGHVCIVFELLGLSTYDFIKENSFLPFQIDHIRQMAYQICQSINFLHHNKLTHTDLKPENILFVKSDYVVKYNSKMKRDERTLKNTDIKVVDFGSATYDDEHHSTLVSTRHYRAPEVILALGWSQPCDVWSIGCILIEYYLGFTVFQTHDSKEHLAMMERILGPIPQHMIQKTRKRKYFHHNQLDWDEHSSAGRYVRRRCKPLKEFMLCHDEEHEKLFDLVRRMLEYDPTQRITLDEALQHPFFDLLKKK
Chain of UniProt Q02750 (whole entry, looked up): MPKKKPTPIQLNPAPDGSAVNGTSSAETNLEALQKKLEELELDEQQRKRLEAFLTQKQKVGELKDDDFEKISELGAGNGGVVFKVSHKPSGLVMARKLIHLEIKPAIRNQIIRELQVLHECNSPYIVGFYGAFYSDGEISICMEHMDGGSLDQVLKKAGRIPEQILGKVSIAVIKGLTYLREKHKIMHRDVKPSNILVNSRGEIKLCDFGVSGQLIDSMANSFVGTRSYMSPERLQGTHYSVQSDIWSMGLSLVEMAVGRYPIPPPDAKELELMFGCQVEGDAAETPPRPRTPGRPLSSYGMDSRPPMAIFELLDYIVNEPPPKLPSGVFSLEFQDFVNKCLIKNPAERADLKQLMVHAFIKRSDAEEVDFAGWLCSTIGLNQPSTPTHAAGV

Set 1
Organism: Sarcocystis neurona
Read-out: parasite growth
Tested at: 10 µM
Time: 96 h
Notes: second screen
Reference: untreated
SMILES | log2 fold change
OC(Cn1cncn1)(Cn1cncn1)c1ccc(F)cc1F | 0.1
S=c1[nH]cnc2nc[nH]c12 | 0.16
Cc1ccc(C)c(OCCCC(C)(C)C(=O)O)c1 | 0.21
COC(=O)C1=C(C)NC(C)=C(C(=O)OCC(C)C)C1c1ccccc1[N+](=O)[O-] (centres unmarked) | 0.38
COC(=O)C1=C(C)NC(C)=C(C(=O)OCCN(C)Cc2ccccc2)C1c1cccc([N+](=O)[O-])c1 (centres unmarked) | 0.43
C[C@@H](O)[C@H]1C(=O)N2C(C(=O)O)=C(S[C@@H]3CN[C@H](C(=O)N(C)C)C3)[C@H](C)[C@H]12 | 0.66
COc1cc2c(cc1OC)C(=O)C(CC1CCN(Cc3ccccc3)CC1)C2 (centres unmarked) | 0.63
CC[C@H]1OC(=O)[C@H](C)C(=O)[C@H](C)[C@@H](O[C@@H]2O[C@H](C)C[C@H](N(C)C)[C@H]2O)[C@](C)(OC)C[C@@H](C)C(=O)[C@H](C)[C@H]2N(CCCCn3cnc(-c4cccnc4)c3)C(=O)O[C@]12C | 0.27

Set 2
Compound: C[C@@H]1CN(c2cc(-c3n[nH]c4ccc(OC5(C)CC5)cc34)ncn2)C[C@H](C)O1
Read-out: cell-free assay
Method: competition with immobilised ligand
Tested at: 0.1 µM
target | remaining binding
VRK2 (Homo sapiens, UniProt Q86Y07) | 65%
Ribosomal protein S6 kinase alpha-3, N-terminal kinase domain (RPS6KA3, Homo sapiens, UniProt P51812) | 73%
PIM3 (Homo sapiens, UniProt Q86V86) | 100%
TNIK (Homo sapiens, UniProt Q9UKE5) | 100%
CHEK2 (Homo sapiens, UniProt O96017) | 68%
HUNK (Homo sapiens, UniProt P57058) | 79%
RET (Homo sapiens, UniProt P07949, V804L) | 98%
FLT3 (Homo sapiens, UniProt P36888, D835H) | 100%
Ribosomal protein S6 kinase alpha-4, N-terminal kinase domain (RPS6KA4, Homo sapiens, UniProt O75676) | 100%
PIK3CA (Homo sapiens, UniProt P42336, H1047Y) | 76%
LIM domain kinase 2 (LIMK2, Homo sapiens, UniProt P53671) | 91%
WNK2 (Homo sapiens, UniProt Q9Y3S1) | 84%
MAP2K1 (Homo sapiens, UniProt Q02750) | 88%
MAP4K3 (Homo sapiens, UniProt Q8IVH8) | 88%
ALK (Homo sapiens, UniProt Q9UM73, C1156Y) | 89%
PRKG2 (Homo sapiens, UniProt Q13237) | 79%
TSSK3 (Homo sapiens, UniProt Q96PN8) | 79%
CAMK1D (Homo sapiens, UniProt Q8IU85) | 100%
CLK4 (Homo sapiens, UniProt Q9HAZ1) | 87%
MAPK10 (Homo sapiens, UniProt P53779) | 77%
STK10 (Homo sapiens, UniProt O94804) | 83%

Set 3
SMILES: C=CCc1ccc(O)c(-c2cc(CC=C)ccc2O)c1
Read-out: chloride current
Method: whole-cell voltage clamp
ANO1 D383A/del476-501: Anoctamin-1 (ANO1, Homo sapiens, UniProt Q5XXA6, D383A/del476-501)
Chain of UniProt Q5XXA6 (whole entry, unmodified, looked up): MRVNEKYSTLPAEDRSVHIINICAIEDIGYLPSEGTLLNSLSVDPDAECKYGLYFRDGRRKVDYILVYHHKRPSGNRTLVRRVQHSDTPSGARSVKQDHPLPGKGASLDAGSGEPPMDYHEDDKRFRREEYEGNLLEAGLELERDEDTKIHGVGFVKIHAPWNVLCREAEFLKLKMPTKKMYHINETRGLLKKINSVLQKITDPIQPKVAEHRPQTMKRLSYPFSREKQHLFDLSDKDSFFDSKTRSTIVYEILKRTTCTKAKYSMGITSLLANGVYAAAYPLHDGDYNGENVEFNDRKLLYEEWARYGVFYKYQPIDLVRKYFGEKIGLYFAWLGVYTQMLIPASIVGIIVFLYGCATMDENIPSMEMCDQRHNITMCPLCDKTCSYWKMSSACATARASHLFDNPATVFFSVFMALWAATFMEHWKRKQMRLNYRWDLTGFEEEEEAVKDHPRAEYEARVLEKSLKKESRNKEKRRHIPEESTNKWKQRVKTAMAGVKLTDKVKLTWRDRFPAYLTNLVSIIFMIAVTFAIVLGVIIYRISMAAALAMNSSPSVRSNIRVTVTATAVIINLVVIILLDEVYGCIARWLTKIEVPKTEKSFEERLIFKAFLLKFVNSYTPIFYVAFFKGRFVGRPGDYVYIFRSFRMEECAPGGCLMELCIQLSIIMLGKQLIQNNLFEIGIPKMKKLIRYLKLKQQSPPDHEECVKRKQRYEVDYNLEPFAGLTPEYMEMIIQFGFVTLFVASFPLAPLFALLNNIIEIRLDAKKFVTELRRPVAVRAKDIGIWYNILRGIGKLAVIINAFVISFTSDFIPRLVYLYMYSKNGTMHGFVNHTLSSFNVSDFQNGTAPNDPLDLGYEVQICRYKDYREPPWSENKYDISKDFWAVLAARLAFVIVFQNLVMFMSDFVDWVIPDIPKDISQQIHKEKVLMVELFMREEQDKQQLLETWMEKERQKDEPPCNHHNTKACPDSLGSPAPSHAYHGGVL
target | mode | notes | together with | IC50
Anoctamin-1 (ANO1, Homo sapiens, UniProt Q5XXA6, del476-501/E649K) | inhibitor | E623K mutant at -100 mV | – | 165 µM
Anoctamin-1 (ANO1, Homo sapiens, UniProt Q5XXA6, del476-501) | – | membrane voltage 80 mV | 300 nM Ca2+ | 24.7 µM
ANO1 D383A/del476-501 | inhibitor | pore pocket mutant D383A at 100 mV | 300 nM Ca2+ | 36.8 µM
Anoctamin-1 (ANO1, Homo sapiens, UniProt Q5XXA6, del476-501/F646A) | – | membrane voltage -60 mV | – | 21 µM
ANO1 D383A/del476-501 | – | membrane voltage 40 mV | – | 24.3 µM
Anoctamin-1 (ANO1, Homo sapiens, UniProt Q5XXA6, del476-501/E650A) | – | membrane voltage 20 mV | – | 14.4 µM
Anoctamin-1 (ANO1, Homo sapiens, UniProt Q5XXA6, del476-501/F623A) | inhibitor | mutant F597A at 100 mV | 300 nM Ca2+ | 25.4 µM

Set 4
Species: human
Matrix: microsomes or S9
Tested at: 2 µM
Time: 0.5 h
SMILES | remaining compound
CCOc1ccccc1CN1CCN(Cc2c[nH]c3nccnc23)C(C)C1 (centres unmarked) | 42.1%
COC(=O)c1ccc(Cn2cc(-c3nc(-c4cnccn4)no3)ccc2=O)o1 | 27.9%
Cn1c(C(F)(F)F)nn(CCNS(=O)(=O)CCN2C(=O)CCCC2=O)c1=O | > 99%
COc1cc(-c2nnc3ccc4ccccc4n23)cc(OC)c1OC | 52.2%
CCCS(=O)(=O)N1CCN(S(=O)(=O)c2ccc(NC(C)=O)cc2)CC1 | 22.5%
Cc1c(C#N)c(NS(=O)(=O)CCCCF)n2ccccc12 | 12.1%
COc1ccc(OC)c(N2C(=O)c3cc4occc4n3CC2(C)C(=O)NC2CCCCCC2)c1 (centres unmarked) | 0.726%

Set 5
Target: CRBN/Zinc finger protein Helios (Homo sapiens, UniProt Q96SW2+Q9UKS7)
Chain of UniProt Q96SW2 (whole entry, looked up): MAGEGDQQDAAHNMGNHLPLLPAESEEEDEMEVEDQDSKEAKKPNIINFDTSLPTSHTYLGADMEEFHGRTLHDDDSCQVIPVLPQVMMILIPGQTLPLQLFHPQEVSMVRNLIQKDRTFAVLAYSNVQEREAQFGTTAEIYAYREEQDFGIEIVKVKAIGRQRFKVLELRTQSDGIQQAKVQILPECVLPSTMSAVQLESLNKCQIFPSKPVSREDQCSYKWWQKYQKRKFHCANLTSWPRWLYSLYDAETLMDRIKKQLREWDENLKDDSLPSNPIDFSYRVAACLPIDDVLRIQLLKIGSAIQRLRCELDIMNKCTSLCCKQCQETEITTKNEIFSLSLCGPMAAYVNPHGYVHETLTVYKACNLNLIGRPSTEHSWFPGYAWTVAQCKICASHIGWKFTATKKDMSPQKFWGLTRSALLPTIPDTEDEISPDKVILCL
Chain of UniProt Q9UKS7 (whole entry, looked up): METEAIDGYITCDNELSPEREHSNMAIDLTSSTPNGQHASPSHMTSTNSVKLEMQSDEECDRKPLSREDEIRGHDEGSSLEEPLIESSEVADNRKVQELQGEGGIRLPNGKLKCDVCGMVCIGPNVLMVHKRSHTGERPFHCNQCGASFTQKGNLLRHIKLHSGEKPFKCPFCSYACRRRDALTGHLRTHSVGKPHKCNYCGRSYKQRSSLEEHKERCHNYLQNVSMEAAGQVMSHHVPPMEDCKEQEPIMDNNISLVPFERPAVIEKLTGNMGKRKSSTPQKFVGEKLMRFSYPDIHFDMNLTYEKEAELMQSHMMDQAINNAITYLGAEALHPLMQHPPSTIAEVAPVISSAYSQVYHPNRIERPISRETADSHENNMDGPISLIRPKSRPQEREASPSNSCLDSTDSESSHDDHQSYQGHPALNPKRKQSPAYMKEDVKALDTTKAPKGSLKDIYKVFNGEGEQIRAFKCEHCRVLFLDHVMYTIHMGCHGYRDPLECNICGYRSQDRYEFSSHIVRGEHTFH
Mode: degrader
Method: HiBiT
Cells: HEK293
Tested at: 3333.33 nM
SMILES | protein remaining [%]
O=C1CCC(N2Cc3c(ccc4c3OCCC43CCN(Cc4ccccc4)CC3)C2=O)C(=O)N1 (centres unmarked) | 63.4
O=C1CCC(N2Cc3c(ccc4c3OCC43CCC(Cc4ccccc4)CC3)C2=O)C(=O)N1 (centres unmarked) | 88.8
O=C1CCC(N2Cc3c(ccc4c3OCC43CCC(Oc4ccccc4)CC3)C2=O)C(=O)N1 (centres unmarked) | 65.7

Other studies, line by line
SMILES | cell line | method | tested at | time | reference | quantity | result
COc1ccc(Oc2cc(NCCC(F)(F)F)c3ncc(-c4ccc(C(=O)NC5CC5)c(C)c4)n3n2)c(F)c1F | NCI-H1048 | Vi-Cell | 3 nM | 3 d | DMSO | cell count | 0.65 and 0.792

Excerpt of the above (set 4):
SMILES | remaining compound
COC(=O)c1ccc(Cn2cc(-c3nc(-c4cnccn4)no3)ccc2=O)o1 | 27.9%
Cc1c(C#N)c(NS(=O)(=O)CCCCF)n2ccccc12 | 12.1%
COc1ccc(OC)c(N2C(=O)c3cc4occc4n3CC2(C)C(=O)NC2CCCCCC2)c1 (centres unmarked) | 0.726%
CCCS(=O)(=O)N1CCN(S(=O)(=O)c2ccc(NC(C)=O)cc2)CC1 | 22.5%
Cn1c(C(F)(F)F)nn(CCNS(=O)(=O)CCN2C(=O)CCCC2=O)c1=O | > 99%
